Assay results gathered from unrelated publications.
Parts stem from different laboratories: compare values within a part only.

Series 1 — method: competition protein-binding microarray; form: double-stranded DNA, one strand shown; medium: in vitro; concentration: 2 µM; added: Cbf1 competitor, 0.05 µM; direction: higher = stronger binding
Target: Phosphate system positive regulatory protein PHO4, full length, GST-tagged (PHO4, Saccharomyces cerevisiae, UniProt P07270, residues 1-312)
Setting: whole 60-bp probe, lowest competitor level
Target sequence (chain): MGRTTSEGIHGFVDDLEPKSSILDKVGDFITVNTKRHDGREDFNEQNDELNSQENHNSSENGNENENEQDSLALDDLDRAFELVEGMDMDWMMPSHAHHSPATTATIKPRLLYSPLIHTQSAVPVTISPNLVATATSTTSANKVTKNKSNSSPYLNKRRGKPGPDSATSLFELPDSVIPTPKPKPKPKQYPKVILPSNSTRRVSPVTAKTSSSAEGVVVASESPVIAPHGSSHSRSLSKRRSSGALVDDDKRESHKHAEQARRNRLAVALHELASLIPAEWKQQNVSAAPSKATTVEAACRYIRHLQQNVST
Oligonucleotide | fluorescence intensity [a.u.]
GTCTTGTCTCATTGAGCAGTGGGTGTCCCCACTTCAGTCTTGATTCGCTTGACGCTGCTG | 4430
GGACCAGCCCGGACCCATGTGCTTCCAAGTGGCCAGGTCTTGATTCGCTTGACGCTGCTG | 11400
GGGATTCCTCTCTGGCGTGTGATGTCTGTATCTGTTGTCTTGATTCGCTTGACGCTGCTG | 5340
CTACGGAAAAGGCCACACTTTTTTTCTGCAAGAAAAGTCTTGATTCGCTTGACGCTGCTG | 4430
GAAGGAGTGAGGGACCCCGTGGGTACCGAACCCCGAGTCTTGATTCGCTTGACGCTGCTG | 10300
GACGACAACAACTGTCATGTGGAAGATAGCCAAAATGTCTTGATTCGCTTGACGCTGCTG | 7440
ATATACATACACACATACATGCAAGCACATACATCCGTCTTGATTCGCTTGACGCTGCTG | 9140
CATACCCAACCTTGGCCGGTGGGTGAAGATATTTGTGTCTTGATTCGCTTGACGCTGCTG | 3800
CTAACGAAGGTTTGGACAGTGGGTGACAAGCCAAGTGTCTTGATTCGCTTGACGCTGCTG | 3910
AGCGCCCATAAAAAGCACGATATTCTTGTACACTAGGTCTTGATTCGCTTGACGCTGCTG | 6300
TCACCAGCCATTTTTGACATGACAGCTGGACCATTAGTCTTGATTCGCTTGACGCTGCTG | 3780
TGCTGGCGCTGCTACGCCGTGACGGCTCATTTCATCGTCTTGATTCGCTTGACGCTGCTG | 3630

Series 2 — method: protein binding microarray; form: double-stranded DNA, one strand shown; medium: in vitro; concentration: not given; relative to: not given; direction: higher = stronger binding
Target: Histone acetyltransferase KAT6A, winged helix 1, GST fusion (KAT6A, Homo sapiens, UniProt Q92794, residues 1-85)
Setting: 8-mer, flanks averaged, mean of 2 arrays, mostly near background
Construct (chain): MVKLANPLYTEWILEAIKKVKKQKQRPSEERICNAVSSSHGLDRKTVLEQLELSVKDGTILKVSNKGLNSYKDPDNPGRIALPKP
Oligonucleotide | E-score
GCTGCTCA | -0.14
GGATTTAC | 0.159
AGATTCTA | -0.198
ACAGAGGT | -0.139
ATCTGTGA | -0.0626
AGAGACAT | -0.142
CGAGTCAA | -0.0896
AGCATGCT | -0.179
GAGCACCC | 0.0525
AGCACATA | -0.138

Series 3 — method: protein-binding microarray; form: double-stranded DNA, one strand shown; medium: in vitro; concentration: 250 nM; setting: 60-bp whole probe; added: salmon DNA 0.4 mg/ml; relative to: random background probes; direction: higher = stronger binding; all sequences stand within: GCCTAGCAC … GTCTTGATTCGCTTGACGCTGCTG
Target: Interferon regulatory factor 5, full length, phosphomimetic (IRF5, Homo sapiens, UniProt Q13568-2, residues 1-514, K96S/S451D/S453D/S456D/S462D)
Oligonucleotide | log fluorescence
TTAGATCTCAGTATCGATTGGTGCTAG | 6.07 z-score
TCAGGTAGCCTTATCCCTAAGTGCTAG | -0.495 z-score
GACGGAATCCTTCTCCTGACGTGCTAG | -0.26 z-score
GACGATATCTGTATCGAGACGTGCTAG | 1.86 z-score
TCAACTGTCTGTTTCCTACTGTGCTAG | 0.698 z-score
GAAGATCTCAGTCTCGAGACGTGCTAG | 0.16 z-score
TTACATTTCAGTATCGATTAGTGCTAG | 8.74 z-score
TCATGTCTGGGATGTAATACTGTGCTA | 0.102 z-score
TTAGGTTTCCTTTCACTTTAGTGCTAG | 5.61 z-score

Other studies, line by line
Substance | target | test | system | setting | scale | quantity | value
PhoQ, residues 284 288 289 292 302 303 SLSLLA | PhoP, residues 12 14 15 18 19 LQHIR (Escherichia coli, UniProt P23836) | Sort-seq, item: YFP reporter | E. coli | PhoQ-PhoP variant library, added: 10 µM Mg2+ | relative to: high Mg2+ state, higher = stronger signaling | fold induction | 11.3

Excerpt of the above (series 2):
Oligonucleotide | E-score
CGAGTCAA | -0.0896
ACAGAGGT | -0.139
GCTGCTCA | -0.14
AGCACATA | -0.138
